# Measured values from different studies.
# Lines come from different studies, so protocols differ.
# HDAC3: Histone deacetylase 3 (HDAC3, Homo sapiens, UniProt O15379)
# Sequence of UniProt O15379 (whole entry, looked up): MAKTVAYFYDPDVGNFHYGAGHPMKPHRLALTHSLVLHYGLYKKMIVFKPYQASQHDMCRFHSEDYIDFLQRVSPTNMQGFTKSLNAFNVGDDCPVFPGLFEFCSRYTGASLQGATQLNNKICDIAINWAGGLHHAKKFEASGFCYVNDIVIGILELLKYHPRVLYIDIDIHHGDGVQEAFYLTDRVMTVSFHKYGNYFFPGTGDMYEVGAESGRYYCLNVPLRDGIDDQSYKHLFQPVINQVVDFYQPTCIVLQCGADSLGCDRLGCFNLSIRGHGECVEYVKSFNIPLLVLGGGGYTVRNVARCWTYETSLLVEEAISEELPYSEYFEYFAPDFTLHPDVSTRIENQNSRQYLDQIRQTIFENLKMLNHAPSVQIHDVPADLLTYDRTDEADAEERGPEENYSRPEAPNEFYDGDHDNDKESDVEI
Compound,target,test,system,conditions,quantity,value
CC[C@H](C)[C@@H]1NC(=O)[C@H](Cc2ccccc2C(F)(F)F)NC(=O)CCSCc2cccc(n2)CSCCCNC(=O)[C@H](CCCCCC(=O)NO)NC1=O,HDAC3,"enzyme activity, inhibitor, fluorescence",,,Ki,4 nM
O=C(CCc1ccc(CNC(C(=O)OC2CCCC2)C2CCCCC2)cn1)NO (stereo not shown),HDAC3,"enzyme activity, inhibitor",,,IC50,692 nM
Cc1c(COc2cc(OCc3cccc(C#N)c3)c(CNC(C)(CO)CO)cc2Cl)cccc1-c1cccc(OCCCCCCC(=O)NO)c1,HDAC3,"enzyme activity, inhibitor",,,IC50,48.9 nM
O=C(NO)c1cnc(NC2(c3cccc(F)c3)CCCCC2)nc1,HDAC3,"inhibitor, competition pulldown",SW620 and MV4-11 lysate,1 h,Kd,> 30200 nM
Cc1c(COc2cc(OCc3cccc(C#N)c3)c(CNCCO)cc2Cl)cccc1-c1cccc(OCCCCCCC(=O)NO)c1,HDAC3,"enzyme activity, inhibitor",,,IC50,56.9 nM
Cc1nc2c(F)cc(-c3nc(Nc4ccc(CNC(=O)CCCCCCC(=O)NO)cc4)ncc3F)cc2n1C(C)C,HDAC3,"enzyme activity, inhibitor",,,IC50,56 nM
COc1ccc(C(=O)NO)cc1NC(=O)c1ccc(-c2ccccc2)cc1,HDAC3,"inhibitor, competition pulldown",SW620 and MV4-11 lysate,1 h,Kd,> 30200 nM
Cc1c(COc2cc(OCc3cccc(C#N)c3)c(CNC(CO)(CO)CO)cc2Cl)cccc1-c1cccc(OCCCCCCC(=O)NO)c1,HDAC3,"enzyme activity, inhibitor",,,IC50,51.2 nM
O=C(/C=C/c1cccc(OS(=O)(=O)Oc2ccc(Br)cc2)c1)NO,"Histone deacetylase 3, with NCoR2 DAD (HDAC3, Homo sapiens, UniProt O15379)","enzyme activity, inhibitor, fluorogenic",,,Ki,20 nM
C[S@@](=N)(=O)c1ccc(C(=O)Nc2cc(-c3ccc(F)cc3)ccc2N)cc1,"Histone deacetylase 3, with NCoR2 (HDAC3, Homo sapiens, UniProt O15379)",,,3 h,IC50,1200 nM

# Excerpt of the above:
Compound,target,test,system,conditions,quantity,value
C[S@@](=N)(=O)c1ccc(C(=O)Nc2cc(-c3ccc(F)cc3)ccc2N)cc1,"Histone deacetylase 3, with NCoR2 (HDAC3, Homo sapiens, UniProt O15379)",,,3 h,IC50,1200 nM
